Results from different studies.
Each line is one published result; not all experiments were run side by side. ± gives the spread as reported.

For `Cc1nc2cccc(OCC(C)(C)C(=O)NC(C)C)c2c(N)c1C(=O)O`, “Cmax ratio female over male” read 1.61 ± 0.71 (Sprague-Dawley rat, plasma; oral, 100 mg/kg, day 7, 7-day repeated dosing; baseline: female over male).
Under “patients with adverse event”, `Cc1ccc(C(=O)N(CCCN)C(c2nc3snc(C)c3c(=O)n2Cc2ccccc2)C(C)C)cc1` (stereo not drawn) is recorded as 50% (stomatitis grade ≥3 (CTCAE); human patients; intravenous, 18 mg/day).
Under “Freundlich coefficient KF”, `COc1ccnc(C(=O)N[C@H]2COC(=O)[C@H](Cc3ccccc3)[C@@H](O)[C@H](C)OC2=O)c1O` is recorded as 16.6 mL/g (soil adsorption; tested soils; geometric mean).
For `O=C(O)c1sccc1S(=O)(=O)NCCn1ccc2c(Br)cccc21`, “DLS scattered light intensity” read 1.48e+06 counts/s (colloidal aggregate formation, dynamic light scattering; 50 mM potassium phosphate buffer; 200 µM, pH 7.0, 1% DMSO; higher = more aggregation).
`C[C@@H](O)[C@H]1C(=O)N2C(C(=O)O)=C(S[C@@H]3CN[C@H](C(=O)N(C)C)C3)[C@H](C)[C@H]12` — result for “deviation from nominal concentration”: -1.5% (human whole blood; concentration not given, 24 h, 4 °C).
`COc1cc(Nc2ncc3c(n2)-c2ccc(Cl)cc2C(c2c(F)cccc2OC)=NC3)ccc1C(=O)O` — result for “patients with adverse event”: 8% (refers to: Dizziness, grade 1; cancer patients, phase 1/2; oral, dose not given, together with: pembrolizumab).
With `Nc1ccn([C@@H]2O[C@H](CO)[C@@H](O)C2(F)F)c(=O)n1` the Tmax, mean was 1.39 h (refers to: dFdU; human, plasma; intravenous, 1000 mg/m^2, together with: before paricalcitol).
The half-life, mean of `Cc1cc(Nc2ncnc3ccc(NC4=NC(C)(C)CO4)cc23)ccc1Oc1ccn2ncnc2c1` is reported as 7.98 h (human, plasma; oral, 300 mg, day 1, single dose alone).
`COC(=O)N[C@H](C(=O)N1CCC[C@H]1c1ncc(-c2cc(F)c3c(c2)O[C@@H](c2cnc(C4CC4)s2)n2c-3cc3cc(-c4cnc([C@@H]5CCCN5C(=O)[C@@H](NC(=O)OC)C(C)C)[nH]4)ccc32)[nH]1)C(C)C` gave a Ctrough increase of ~44% (healthy adult humans; oral, dose not given; baseline: low-fat meal over fasted).
`C[C@H](CCC(=O)NCC(=O)O)[C@H]1CC[C@H]2[C@@H]3[C@H](O)C[C@@H]4C[C@H](O)CC[C@]4(C)[C@H]3CC[C@]12C` — result for “daily mean concentration”: 482 ± 64 nM (human, plasma; endogenous baseline diurnal).
The AUC(0-tlast) of `CC(C)C[C@H](NC(=O)[C@H](CC(C)C)NC(=O)[C@H](Cc1c[nH]c2ccccc12)NC(=O)[C@H](CCC(=O)O)NC(=O)[C@@H](NC(=O)[C@H](Cc1ccccc1)NC(=O)[C@H](CCC(=O)O)NC(=O)[C@H](CCCCNC(=O)COCCOCCNC(=O)COCCOCCNC(=O)CC[C@H](NC(=O)CCCCCCCCCCCCCCCCCCC(=O)O)C(=O)O)NC(=O)[C@H](C)NC(=O)[C@H](CCCCN)NC(=O)[C@H](CCCCN)NC(=O)[C@H](CCC(=O)O)NC(=O)[C@H](CC(=O)O)NC(=O)[C@H](CC(C)C)NC(=O)[C@H](Cc1ccc(O)cc1)NC(=O)[C@H](CCCCN)NC(=O)[C@H](CO)NC(=O)[C@H](Cc1ccc(O)cc1)NC(=O)[C@H](CC(=O)O)NC(=O)[C@H](CO)NC(=O)[C@@H](NC(=O)[C@H](Cc1ccccc1)NC(=O)[C@@H](NC(=O)CNC(=O)[C@H](CCC(N)=O)NC(=O)C(C)(C)NC(=O)[C@@H](N)Cc1c[nH]cn1)[C@@H](C)O)[C@@H](C)O)C(C)C)C(=O)N[C@@H](CCC(=O)O)C(=O)NCC(=O)NCC(=O)N1CCC[C@H]1C(=O)N[C@@H](CO)C(=O)N[C@@H](CO)C(=O)NCC(N)=O` is reported as 1550 µg·h/mL (human, plasma; subcutaneous, 16 mg once weekly, week 20, geometric mean).
For `CN1C[C@H](COc2nccc3c(NCc4ccco4)cc(Cl)nc23)OC1=O`, the QRS interval was 32 ms (rabbit NZW female, isolated Langendorff heart; 10 µM, 15 min).
`C=CCN1CC(=O)N2[C@@H](Cc3ccc(O)cc3F)C(=O)N(Cc3cccc(N4CC(N5CCN(CC)CC5)C4)n3)C[C@@H]2N1C(=O)NCc1ccccc1` — result for “treatment-related adverse events”: 73.7% (refers to: Vomiting; advanced solid tumour patients; all doses, expansion part, any grade).
`CCOc1c([C@H](C)n2nc(C)c3c(N)ncnc32)cc(Cl)c(F)c1[C@@H]1CNC(=O)C1` has an ECG observations of 0% (refers to: QTcF above 500 ms; previously treated B-cell malignancy; oral, 10 mg once daily, baseline QTcF ≤450 ms).
`COCCOc1cnc2ccn([C@H](C)c3nnc4c(F)cc(-c5cnn(C)c5)cn34)c(=O)c2c1` gave a Ctrough of 120 ng/mL (patients, plasma; oral, 100 mg once daily, day 28 24 h postdose).
`CCN1/C(=C/C(C)=O)Sc2ccc(F)cc21`: “diastolic blood pressure change” 102 ± 8.1% (cynomolgus monkey; oral, 100 mg/kg, 0.5 h post-dose; baseline: pre-dose).
`Cc1cc(-c2nnc(N)nc2-c2ccc(F)cc2)cc(Cl)n1`: “patients with treatment-related AE” 94.7% (human, IO-naive other solid tumours; oral, 100 mg once daily, phase Ia/Ib, any grade).
The SHBG level of `N#Cc1ccc2c(c1)[C@H]1CCCN(C(=O)c3ccc4[nH]cnc4c3)[C@H]1C2` is reported as 24.8 nmol/L (human males; 240 mg, end of trial).
`CNC(=O)c1ccc(NS(=O)(=O)c2cc(Cl)cc(Cl)c2O)c(Cl)c1` — result for “DLS scattered light intensity”: 579000 counts/s (colloidal aggregate formation, dynamic light scattering; 50 mM potassium phosphate buffer; 200 µM, pH 7.0, 1% DMSO; higher = more aggregation).
`CC(=O)Oc1ccccc1C(=O)O` gave a QTc interval of 319 ± 0.6 ms (male Hartley guinea pig, anaesthetized; intravenous infusion, 10 mg/kg, 10 min infusion, post-infusion).
`Cc1cc(NC2CCN(C(=O)OC3CCN(C(=O)/C=C/CN(C)C)C3)CC2)n2ncc(C(C)C)c2n1` (stereo not drawn) — result for “patients with adverse event”: 9% (Phase I dose escalation CTCAE v4.0, refers to: Ascites; patients with advanced solid tumours; dose not given, TIW dosing any grade).
`c1ccc(-c2nc(N3CCC(c4ccccn4)C3)c3ccccc3n2)nc1` (stereo not drawn) has a blood concentration of 1370 ng/mL (female Balb/c mice, blood; intravenous, 2 mg/kg, 1 h, mean, together with: 1-aminobenzotriazole co-dosed).
`CC(C(=O)NCC(=O)NCC(CNC(=O)CNC(=O)C(C)N1CCN(CC(=O)[O-])CCN(CC(=O)[O-])CCN(CC(=O)[O-])CC1)(CNC(=O)CNC(=O)C(C)N1CCN(CC(=O)[O-])CCN(CC(=O)[O-])CCN(CC(=O)[O-])CC1)CNC(=O)CNC(=O)C(C)N1CCN(CC(=O)[O-])CCN(CC(=O)[O-])CCN(CC(=O)[O-])CC1)N1CCN(CC(=O)[O-])CCN(CC(=O)[O-])CCN(CC(=O)[O-])CC1.[Gd+3].[Gd+3].[Gd+3].[Gd+3]` (stereo not drawn) — result for “lanthanide tissue concentration”: 0.34 ± 0.12 nmol/g (cynomolgus monkey, skin; dose not given, day 5).
For `COc1cc(C(=O)N2CCC3(CC2)CC(=O)c2c(cnn2C(C)C)C3)cc(-c2ccc(C(=O)O)cc2)n1`, “percentage change from baseline” read -4.5% (refers to: total cholesterol; human, fasting serum; 1 mg every 12 h, day 13, adjusted geometric mean; baseline: baseline).
With `CCc1cc(C(=O)NC)c2nccc(N3CCc4c(cc(Cn5ccnc5)cc4-c4cn(C)nc4C(F)(F)F)C3=O)c2c1` the kidney weight was 2.58 ± 0.089 g (Sprague Dawley rat; oral, 50 mg/kg once daily, 7 days).
`C/C(=N\c1ccc(O)cc1)c1cc2ccccc2n1C` has a remaining compound of 93.1 ± 6% (rat plasma; 1.5 ng/mL, 4 h, room temperature; baseline: nominal concentration).
For `N#Cc1cc(NC(=O)[C@H]2c3ccccc3C(=O)N(CC(F)(F)F)[C@@H]2c2cccnc2)ccc1F`, the CL was 562 mL/min (human; oral, fasted, cohorts 1-4, population mean).
`CCC(C)n1ncn(-c2ccc(N3CCN(c4ccc(OCC5COC(Cn6cncn6)(c6ccc(Cl)cc6Cl)O5)cc4)CC3)cc2)c1=O` (stereo not drawn): “trough plasma concentration” 64 ng/mL (human, plasma; oral, dose not given, day 12 predose, geometric mean).
`C=CC(=O)Nc1cc(Nc2ncc(C(=O)OC(C)C)c(-c3cn(C)c4ccccc34)n2)c(OC)cc1N(C)CCN(C)C` — result for “peripheral volume of distribution”: 286 L (two-compartment PK model; mouse; dose not given).
`O=C(Nc1nc2cccc(-c3ccc(CN4CCS(=O)(=O)CC4)cc3)n2n1)C1CC1`: “treatment-emergent adverse events” 0% (refers to: immune system disorders; human rheumatoid arthritis patients; oral, 300 mg once daily, 4 weeks, regardless of relatedness).
`COc1ccc2nc(NC(=O)c3cc(=O)c4ccccc4o3)sc2c1` gave an HC50 of > 64 µg/mL (haemolysis; sheep erythrocytes; 1 h, pH 7.5).
`C=CC(=O)Nc1cc(Nc2nccc(-c3cn(C)c4ccccc34)n2)c(OC)cc1N(C)CCN(C)C` gave a recovery of 93.5% (storage stability; human plasma; 30 d, -80 °C, HQC level).
`CC(C)(C(=O)N1CCOc2c(C#N)cncc2C1)C(F)F` — result for “subjects with adverse event”: 16.7% (refers to: Constipation; human; oral, 40 mg, CSF pharmacokinetic cohort).
`Cc1ccc(Sc2ccccc2N2CCNCC2)c(C)c1` gave a pyrexia incidence of 16.7% (healthy adult men; oral, 40 mg single dose, treatment-emergent adverse events).
`CNC(=O)c1cccc(-c2ccc(O[C@H]3O[C@H](CO)[C@@H](O)[C@H](O)[C@@H]3O)c(C)c2)c1` gave a terminal half-life of 2.85 h (Sprague-Dawley rat, male, plasma; oral, 10 mg/kg).
`Cc1ccc(NS(=O)(=O)c2cccc(Cl)c2O)c(-c2ncn[nH]2)c1`: “DLS scattered light intensity” 404000 counts/s (colloidal aggregate formation, dynamic light scattering; 50 mM potassium phosphate buffer; 200 µM, pH 7.0, 1% DMSO; higher = more aggregation).
The QTc interval of `O=C(CCCN1CC=C(n2c(=O)[nH]c3ccccc32)CC1)c1ccc(F)cc1` is reported as 315 ± 0.6 ms (male Hartley guinea pig, anaesthetized; intravenous infusion, 0.03 mg/kg, 10 min infusion, post-infusion).
Under “DLS scattered light intensity”, `Cc1c(NS(=O)(=O)c2cc(Cl)cc(Cl)c2O)cccc1-n1cn[nH]c1=O` is recorded as 405000 counts/s (colloidal aggregate formation, dynamic light scattering; 50 mM potassium phosphate buffer; 200 µM, pH 7.0, 1% DMSO; higher = more aggregation).
`CNCCOC12CC3(C)CC(C)(CC(Cn4ncc(-c5ccc(N6CCc7cccc(C(=O)Nc8nc9ccccc9s8)c7C6)nc5C(=O)O)c4C)(C3)C1)C2`: “PR interval change” -9 ms (beagle dog, male, anaesthetised; intravenous bolus, 0.03 mg/kg, 15 min; baseline: baseline).

Excerpt of the above:
`Cc1ccc(NS(=O)(=O)c2cccc(Cl)c2O)c(-c2ncn[nH]2)c1`: “DLS scattered light intensity” 404000 counts/s (colloidal aggregate formation, dynamic light scattering; 50 mM potassium phosphate buffer; 200 µM, pH 7.0, 1% DMSO; higher = more aggregation).
The QTc interval of `O=C(CCCN1CC=C(n2c(=O)[nH]c3ccccc32)CC1)c1ccc(F)cc1` is reported as 315 ± 0.6 ms (male Hartley guinea pig, anaesthetized; intravenous infusion, 0.03 mg/kg, 10 min infusion, post-infusion).
Under “DLS scattered light intensity”, `Cc1c(NS(=O)(=O)c2cc(Cl)cc(Cl)c2O)cccc1-n1cn[nH]c1=O` is recorded as 405000 counts/s (colloidal aggregate formation, dynamic light scattering; 50 mM potassium phosphate buffer; 200 µM, pH 7.0, 1% DMSO; higher = more aggregation).
